Measured values from different studies.
Each numbered part is a random draw from the data of one study; scales do not carry over between parts.

Set 1
Target: RNA binding protein fox-1 homolog 2, RRM domain, GST-SBP tag (RBFOX2, Homo sapiens, UniProt O43251-10, residues 100-194)
Technique: RNA Bind-n-Seq
Form: RNA
Matrix: in vitro
Tested at: 365 nM
Setting: natural RNA segment, single round, ends assumed
Relative to: no-protein control
Reading: higher = stronger binding
Shared flanks, not repeated: GGGAGUUCUACAGUCCGACGAUC … UGGAAUUCUCGGGUGCCAA
Construct (chain): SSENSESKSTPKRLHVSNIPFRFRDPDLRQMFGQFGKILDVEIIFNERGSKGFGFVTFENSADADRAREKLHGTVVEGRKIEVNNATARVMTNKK
Under “RBNS enrichment (R)”, `GUCCAAGGCCAAGAACCUCAUCAAGGAGGCAGGCAACGAGUUUGUACAGCACAAUGCCAGACAGUUAUGCCGCGUGUAUCCCAGUGGUCUGAGGACAGAUUCAUCCAACU` is recorded as 0.494.
`CCAUAGCACUGCCCACAACCUGUUCUCACUGCUUAGCUCCCAGCUGGAUUAAAGACACCUGCUCAGGCGGGAGAGAGAGAGAGAGAGCGAGCUUUUACCUUGGAAAAGGU`: “RBNS enrichment (R)” 0.332.
`UAACUUCUGUUACUCCUUUGGCCCAUAGCUAAGGUCAUCCUUCCCCACAGGGGUGGCUUUGGGAUUGGAUGAUACAGCUUUUGCUUCUGUGUAGUAUACCUGUACAUACU`: “RBNS enrichment (R)” 0.698.
`AUCUUUGCACAUGUGACCAUGCUGUGUUAGGGGCUGUGUUCCAGGGACUGGACUCGAAGCUAGAACUGGCAGAAGAGUUCUGGCAUCCACAGCGCAAUGCUGCCACCACC`: “RBNS enrichment (R)” 0.801.
`UUGGAAACUGCUUUAUGAAGAAACUGCUUUAUGAAAUAAGCAAAAUUCUCAAGUGCACAGAUACUAGCAGUUAUGACAGUAAUACAGCGUCUUCUGUGACCCUCACUACC` — result for “RBNS enrichment (R)”: 0.38.
For `CGAAAGGUGACAUCUAAUUUCACAUUAAAAUGUUAGUGGAUAUAAUUUCAUGGUUGUACUUCUUAGAUUUAAUUUCUAGGCCAACACGUUAUCUUAAGGUGCAGUUUUAA`, “RBNS enrichment (R)” read 0.324.
Under “RBNS enrichment (R)”, `GUCCUGGGCGCUUCCCUUUUAAGCAAGGGCGCCUCACCUGCUCUUCAAGAAACAGCGAGAGGGAGACCCAGGGGGCUGAAACUUGAACUCUGGUUCUUUUAAAAUUAAUU` is recorded as 1.02.
`AUCAGAAUGCCUGUUUGUGGUUUCAUAUGCAAUAAUAUAUUUUUUUAAAAAUGUGGACUUCAUAGGAAGGCGUGAGUACAAUUAGUAUAAUGCAUAACUCAUUGUUGUCC` — result for “RBNS enrichment (R)”: 0.546.
`UUCCUCUGCGGUCAUGUUGGCUUUCAUGCUGGAUCAAAUGUUUUACUUUCCCAGACUGGUGGCAUCUGAGUUCCCCAUCCUACCACUCUCACCCCACUUUCCUGCCCCAC` — result for “RBNS enrichment (R)”: 0.993.
For `UGUCAUCCUUUGUGACAUUGUUACCCUGAGGUAUACUCCCUGCAGUGAGCUGGUCUUCCUGAAGUGGGCCUGCUUUGCACUAUAGGCUGCUUGUAUGUUUGGUUUGUUGU`, “RBNS enrichment (R)” read 25.6.
Under “RBNS enrichment (R)”, `CUGAGAGCAUCACUAUCAGGCAUGUGUUACCAAAAAACUGGCAGAAUCAGAAACUCAUUUACAUAAUGUAAAAGUGAAUCUAAAUAAAUCAUGAUUUAAACAGUCUAAAA` is recorded as 0.772.
For `UUGAAAACUGAAAAUGGGAAGGCAACUUGAAGUCAUUGUAUUUGAUUGAAAAUGUUUAAUACAUCUCAUUAUUGACAAAAUAUGUCAUCUUGUAUUUAUUUCAAGGAAAC`, “RBNS enrichment (R)” read 0.323.

Set 2
Target: Histone acetyltransferase KAT6A, winged helix 1, GST fusion (KAT6A, Homo sapiens, UniProt Q92794, residues 1-85)
Technique: protein binding microarray
Form: double-stranded DNA, one strand shown
Matrix: in vitro
Tested at: not given
Setting: 8-mer, flanks averaged, mean of 2 arrays, mostly near background
Relative to: not given
Reading: higher = stronger binding
Construct (chain): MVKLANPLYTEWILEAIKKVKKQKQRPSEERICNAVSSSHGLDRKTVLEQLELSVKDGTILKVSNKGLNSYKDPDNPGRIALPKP
For `CATCCAGC`, the E-score was 0.00932.
`ATCTTCGC` has an E-score of 0.014.
The E-score of `GAAAATCC` is reported as -0.176.
`CGACCTGA` has an E-score of -0.137.
With `AATTTTCT` the E-score was -0.201.
`AACGCGAA` gave an E-score of 0.0442.
`GCTACAAC` gave an E-score of -0.112.
With `ATCCTCCA` the E-score was -0.283.
For `AGCCTTCC`, the E-score was -0.0363.
`CCAGCTCC` gave an E-score of -0.141.
For `AAGGTTCT`, the E-score was -0.128.
The E-score of `GAACCCAA` is reported as -0.175.
With `AAAGTAGG` the E-score was -0.0534.
`CCAATTAG` gave an E-score of -0.254.
`ACAATCCT` has an E-score of -0.0967.
`GGATAAAA` gave an E-score of -0.0794.
For `ACTCGGGC`, the E-score was 0.142.
For `CTGAGCAG`, the E-score was -0.0378.

Set 3
Target: Protein C-ets-1 (ETS1, Homo sapiens, UniProt P14921, residues 1-441, K379A, full length assumed)
Technique: protein-binding microarray
Form: double-stranded DNA, one strand shown
Matrix: in vitro
Tested at: not given
Setting: k-mer, scored over probes, only values ≥0.25
Reading: higher = stronger binding
Target sequence (chain): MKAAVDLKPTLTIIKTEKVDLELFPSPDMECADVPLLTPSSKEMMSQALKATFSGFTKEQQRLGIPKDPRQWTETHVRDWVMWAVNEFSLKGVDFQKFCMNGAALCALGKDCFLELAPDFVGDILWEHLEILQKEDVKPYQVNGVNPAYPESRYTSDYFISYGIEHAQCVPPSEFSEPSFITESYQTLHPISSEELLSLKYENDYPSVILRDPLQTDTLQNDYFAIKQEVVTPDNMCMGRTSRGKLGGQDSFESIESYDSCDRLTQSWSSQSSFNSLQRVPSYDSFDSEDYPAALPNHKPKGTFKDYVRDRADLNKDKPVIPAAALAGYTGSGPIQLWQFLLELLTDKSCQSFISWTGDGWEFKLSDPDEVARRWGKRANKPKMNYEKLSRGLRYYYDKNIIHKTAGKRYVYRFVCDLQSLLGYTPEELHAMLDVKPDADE
`AATACAAG` gave an E-score of 0.265.
For `ACCGATAC`, the E-score was 0.262.
With `CATCCGGC` the E-score was 0.339.
For `CGGAACAA`, the E-score was 0.252.
`GGTATATA` has an E-score of 0.311.
`GGCGGACA` has an E-score of 0.276.
With `CCGGTCTC` the E-score was 0.311.
With `ACCGCGGA` the E-score was 0.269.
For `ATCCGGTC`, the E-score was 0.35.
For `AATGACCG`, the E-score was 0.266.
The E-score of `ATCCACCG` is reported as 0.252.
With `AGTGCCGG` the E-score was 0.311.
With `CCGGATGC` the E-score was 0.424.
`CGACGGTC` gave an E-score of 0.328.
`CCCCCCGG` gave an E-score of 0.37.
`GATACACC` gave an E-score of 0.286.
The E-score of `CGGAAGCA` is reported as 0.332.
`CCGGCGTC` gave an E-score of 0.27.
`CCGGGACA` gave an E-score of 0.406.
`ATAACCGC` has an E-score of 0.256.
For `CGGTTCAG`, the E-score was 0.27.
The E-score of `CACCGGAG` is reported as 0.34.
With `ATTACGCA` the E-score was 0.254.
With `GTATCATA` the E-score was 0.274.
With `CCGCACCG` the E-score was 0.253.

Set 4
Target: Ras GTPase-activating protein-binding protein 1, full length (G3BP1, Homo sapiens, UniProt Q13283)
UniProt Q13283, sequence (whole entry, looked up): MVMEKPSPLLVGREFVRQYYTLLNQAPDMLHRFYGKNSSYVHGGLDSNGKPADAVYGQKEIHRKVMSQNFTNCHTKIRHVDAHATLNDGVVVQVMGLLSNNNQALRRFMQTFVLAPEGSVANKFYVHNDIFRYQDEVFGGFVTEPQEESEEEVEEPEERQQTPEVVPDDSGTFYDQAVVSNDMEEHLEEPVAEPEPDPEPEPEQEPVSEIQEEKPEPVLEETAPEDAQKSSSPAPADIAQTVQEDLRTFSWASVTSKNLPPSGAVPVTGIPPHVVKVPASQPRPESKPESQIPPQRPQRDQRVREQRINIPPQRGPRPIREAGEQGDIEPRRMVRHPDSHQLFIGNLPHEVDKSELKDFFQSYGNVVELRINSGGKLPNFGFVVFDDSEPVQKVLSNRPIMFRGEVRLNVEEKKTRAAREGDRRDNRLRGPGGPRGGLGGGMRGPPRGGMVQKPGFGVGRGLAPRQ
Technique: RNA Bind-n-Seq
Form: RNA
Matrix: in vitro
Tested at: 200 nM
Setting: whole 134-nt RNA, ends assumed
Added: 150 mM LiCl
Relative to: input library
Reading: higher = stronger binding
Each molecule: 7-deaza-guanosine replaces G
Shared flanks, not repeated: GGGAGUUCUACAGUCCGACGAUC … UGGAAUUCUCGGGUGUCAAGG
For `UCAAGUCCUGUGCUACACAUCGUAUGUACCGAAUCGGUUUGGAAAAAAAGGAGGAAAGUAUUAUGUUACGCCGUUCGGAUCUGCACUUCC`, the log2 enrichment was -0.307.
`GUCCUGUGCUACACAUCGUAUGUACCGAAUCGGGGAGGGGAAAAAGGGGAAAAAGGGGAAAGUAUUAUGUUACGCCGUUCGGAUCUGCAC` gave a log2 enrichment of 0.543.
With `UCCUGUGCUACACAUCGUAUGUACCGAAUCAAAUUUAAACCCCCCCAAACCCCCCCAAAAAAGUAUUAUGUUACGCCGUUCGGAUCUGCA` the log2 enrichment was -0.0096.
`CUCAGCAGACCCUGAAGGACACUUUGAGACACCAAUCUGGAUUGAGCGGGUGGUGAUAAUAGGGGCUGGAAAGCCAGCAGCUGUGGUACU` has a log2 enrichment of -0.778.
For `UGUGCUACACAUCGUAUGUACCGAAUCGGGGAAAAAAAGGGGAAAAAAAGGGGAAAAAAAGGAAAGUAUUAUGUUACGCCGUUCGGAUCU`, the log2 enrichment was 0.501.
With `AGUCCUGUGCUACACAUCGUAUGUACCGAAUCGGUUUUUUUGGUUUGGAAAAAAAGGAAAGUAUUAUGUUACGCCGUUCGGAUCUGCACU` the log2 enrichment was -2.17.
The log2 enrichment of `ACCAUGCAGGUGGGCAUCUUUGGGAAGUGGGGCAAGGGGGGGAUAGGGAGGGGGGUAACACUUUGGGAACAAAAGGUCCCAGGUCGUUUC` is reported as 0.318.
For `CCUCAAGUCCUGUGCUACACAUCGUAUGUACCGAAUCGGGGUGGGUGGGUGGGAAAGUAUUAUGUUACGCCGUUCGGAUCUGCACUUCCA`, the log2 enrichment was 0.681.
The log2 enrichment of `CCUCAAGUCCUGUGCUACACAUCGUAUGUACCGAAUCGGAAGGAAGGAAGGGGAAAGUAUUAUGUUACGCCGUUCGGAUCUGCACUUCCA` is reported as -0.208.
`CCUGUGCUACACAUCGUAUGUACCGAAUCGGAAAAAAAGGGAAAAAAAGGAAAAAAAGGGAAAGUAUUAUGUUACGCCGUUCGGAUCUGC` has a log2 enrichment of -0.111.
The log2 enrichment of `UGUUGCCGUGUGUCUCACCCUACCAUUUCAGAAAAAUGUUCGUUGGUGGCCUGAGCUGGGAUACUAGCAAAAAAGAUUUAAAAGACUAUU` is reported as -3.93.

Set 5
Target: Sal-like protein 4, full length isoform B (SALL4, Homo sapiens, UniProt Q9UJQ4-2, residues 1-616)
Technique: universal PBM
Form: double-stranded DNA, one strand shown
Matrix: in vitro
Tested at: not given
Setting: 8-mer, flanks averaged, mean of replicates
Reading: higher = stronger binding
Construct (chain): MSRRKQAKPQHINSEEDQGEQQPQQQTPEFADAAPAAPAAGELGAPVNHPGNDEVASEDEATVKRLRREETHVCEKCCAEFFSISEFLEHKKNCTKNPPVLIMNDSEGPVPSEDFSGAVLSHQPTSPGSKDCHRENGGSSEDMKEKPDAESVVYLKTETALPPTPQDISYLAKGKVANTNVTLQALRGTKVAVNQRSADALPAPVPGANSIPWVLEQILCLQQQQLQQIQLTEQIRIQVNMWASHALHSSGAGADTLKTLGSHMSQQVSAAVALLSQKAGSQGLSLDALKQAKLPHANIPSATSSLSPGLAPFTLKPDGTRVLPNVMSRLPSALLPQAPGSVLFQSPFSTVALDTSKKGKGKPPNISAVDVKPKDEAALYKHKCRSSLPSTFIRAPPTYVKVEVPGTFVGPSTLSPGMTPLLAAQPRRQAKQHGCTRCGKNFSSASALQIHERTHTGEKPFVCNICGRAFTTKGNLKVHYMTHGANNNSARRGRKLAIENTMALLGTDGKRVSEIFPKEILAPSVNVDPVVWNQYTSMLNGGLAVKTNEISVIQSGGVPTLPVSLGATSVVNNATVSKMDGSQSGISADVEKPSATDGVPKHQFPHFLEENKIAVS
With `AGCCATCA` the E-score was -0.0787.
With `CTCATGAA` the E-score was 0.121.
The E-score of `AGATTATA` is reported as 0.244.
With `CTGCAGTA` the E-score was -0.0242.
For `CCACGAAG`, the E-score was -0.102.
With `AGCCACGG` the E-score was -0.302.
`CTGGGTTC` has an E-score of -0.227.
`ATCCTTTA` gave an E-score of 0.183.
For `GTCGTGGA`, the E-score was -0.0454.
`AATTCGAA` gave an E-score of 0.189.
With `GGAGGGAA` the E-score was -0.242.
For `ACGCATGC`, the E-score was -0.0564.
With `AGACGAGA` the E-score was -0.053.
With `CCCGGAGA` the E-score was -0.265.
`ACAAAGGC` gave an E-score of -0.0899.
For `AGAGAAAT`, the E-score was 0.148.
For `CTATCAAG`, the E-score was 0.0109.
With `AGAATAAA` the E-score was 0.314.
`CTGTGCCA` gave an E-score of -0.164.
`ACGGTTCG` gave an E-score of -0.16.
`CACCAGAG` gave an E-score of -0.218.
For `AACTAATC`, the E-score was 0.149.
`AGGATCAC` gave an E-score of -0.0888.
With `GCGCACCC` the E-score was -0.263.
The E-score of `ACTCTCGG` is reported as -0.155.
